Assay results from different studies.
Every numbered part comes from another study and shows a few of its results, in no order.

Sample 1
Target: TAR DNA-binding protein 43, full length, His tag (TARDBP, Homo sapiens, UniProt Q13148, residues 1-414)
Technique: RNA Bind-n-Seq
Molecule type: RNA
Matrix: in vitro
Tested at: 20 nM
Setting: 6-mer, flanks averaged, single round
With: 150 mM KCl
Baseline: input library
Reading: higher = stronger binding
Sequence | 6-mer enrichment (R)
AUAACA | 0.925
UGAGGG | 4.04
AUUGAA | 0.663
CAUUAC | 0.563
GGAAAG | 2.15
AGUACA | 0.657
AACCAU | 0.61
AUCUCG | 0.59
AUCCGC | 0.624
GCGACC | 0.889
UUGCUG | 0.793
UCAUUU | 0.602
UAGUCA | 0.594
UCUUGU | 0.637
UUAGUA | 0.652
GUAAGA | 0.933

Sample 2
Target: Histone acetyltransferase KAT6A, winged helix 2, GST fusion (KAT6A, Homo sapiens, UniProt Q92794, residues 85-181)
Technique: protein binding microarray
Molecule type: double-stranded DNA, one strand shown
Matrix: in vitro
Tested at: not given
Setting: 8-mer, flanks averaged, mean of 2 arrays, mostly near background
Baseline: not given
Reading: higher = stronger binding
Target sequence (chain): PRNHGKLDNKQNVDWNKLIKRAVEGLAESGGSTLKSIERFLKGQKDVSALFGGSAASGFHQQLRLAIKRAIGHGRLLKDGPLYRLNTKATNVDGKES
Sequence | E-score
AGCGTTAT | -0.234
AACACACA | 0.0306
AGGAAGCA | 0.0961
GCCTATTA | 9e-05
GATATTGA | -0.0754
CCACAGGG | 0.181
AACATCCC | -0.0482
ATCACACC | 0.057
AACTAGGT | 0.00538
AGCGGACA | -0.0587
ACAGGGAT | -0.0158
AGTCTAAG | -0.0809
ATGTTCGA | 0.0292
GACTGAAC | 0.0143
AGGTTGCC | 0.0781
AAGGGATC | -0.18
GGGGGGCA | -0.0318
AATCAGAA | -0.000555
GATTGTAC | -0.279

Sample 3
Target: RING finger protein unkempt homolog, zinc fingers 1-6, GST-SBP tag (UNK, Homo sapiens, UniProt Q9C0B0, residues 30-357)
Technique: RNA Bind-n-Seq
Molecule type: RNA
Matrix: in vitro
Tested at: not given
Setting: RNA with constant flanks, ends assumed
Baseline: input RNA pool
Reading: higher = stronger binding
Shared flanks, not repeated: GGGAGUUCUACAGUCCGACGAUC … CAACAGAGGAUUGAGCAUCA
Residues (chain): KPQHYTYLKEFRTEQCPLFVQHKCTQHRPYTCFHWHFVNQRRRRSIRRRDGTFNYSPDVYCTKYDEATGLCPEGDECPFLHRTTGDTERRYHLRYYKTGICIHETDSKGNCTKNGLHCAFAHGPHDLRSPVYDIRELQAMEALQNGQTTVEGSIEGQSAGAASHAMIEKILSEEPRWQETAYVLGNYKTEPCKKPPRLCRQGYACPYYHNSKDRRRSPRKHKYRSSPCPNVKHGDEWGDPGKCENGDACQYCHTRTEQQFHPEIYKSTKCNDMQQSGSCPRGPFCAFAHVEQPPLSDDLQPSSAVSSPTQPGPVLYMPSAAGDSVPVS
Sequence | bound/input enrichment [ratio]
AGGACAGGGUUAGGAUUGGCAAGGAGAGGGGCAGGAAGGUGGGGGGGGGGGUGGUGGCUCCCGUACCGGGGAGAAUAUUCCACAGAACUGUGACUAUGGCUUGGGGCAGGGGUGGGUGUG | 0.391
GCUCCUAUUAAUGAGGUGGCAAGAUUUAACCUGAUGCAGGUUGGCCGCCUUUUGCAGCAGCCCGCAAUGACUGGCACUGAAGAAGGAGAUCCCCGGACCAAAAAUAGCCUUGGAAAAUUU | 0.356
UCUGACAUUUCUACGCUUGGACACCUGGUAGUAACCACUCAGGGAGGAUACGUGAAAGUAUCCGACCUUUCAAACUUCGAAAUUUUGGCCAAAGUGGAGCCUCCCAAAAAGGAGGGCACU | 0.204
GUUUUUGGCAAACAUGUCAGCAACGCACCGCUUACUAAACUGCCGAUCAAAUGUUUCCCCGAUUUCAAAGCAGGAGGAUCCCUCUGCCAUAUUCUUGCAGCUGCCUACAAAUUCAAGAGU | 0.147
AACAUUUCUACUUUACCAGAGAGUCUUUUAUCAAGUCUUGUGAAACUGAAUAGUUUGACCUCCGCCCGAAAUUGCUUCCAGUUGUAUCCAGUGGGUGGUCCAUCUCAGUUUUCUACCAUC | 0.214
CCCAACAACACAGUAGUUGGGUCAUCAUAUGUACUUUUUGUCUUAUCGAUUUUCUUCACAACCGCCGGACUUCUGUUUGCUGGCAAAGUCUGUUUACCAGGCUGACGAAUGUCUAAACGG | 0.119
GAGCUGGGAUACAAGCAAGAAAGAUCUGACUGAAUAUUUGUCUCGAUUUGGGGAAGUGGCCGACUGCACAAUUAAAACAGACCCAGUCACGGGAAGAUCAAGAGGAUUUGGAUUUGUGCU | 0.492
UUGCUCUCUGAAGUAGACUAGACUGUGCUGUCCAUGAGGAAUGGGUGUGCAUGUGCUUGUCCCCGUGCGUCCCGCUUCUGCAUCGCAGCUGCAGGCCUCCCUCUGGCGGCUGUGUCGCCA | 0.0773

Sample 4
Target: Sal-like protein 4, full length isoform A (SALL4, Homo sapiens, UniProt Q9UJQ4, residues 1-1053)
Sequence of UniProt Q9UJQ4 (whole entry, looked up): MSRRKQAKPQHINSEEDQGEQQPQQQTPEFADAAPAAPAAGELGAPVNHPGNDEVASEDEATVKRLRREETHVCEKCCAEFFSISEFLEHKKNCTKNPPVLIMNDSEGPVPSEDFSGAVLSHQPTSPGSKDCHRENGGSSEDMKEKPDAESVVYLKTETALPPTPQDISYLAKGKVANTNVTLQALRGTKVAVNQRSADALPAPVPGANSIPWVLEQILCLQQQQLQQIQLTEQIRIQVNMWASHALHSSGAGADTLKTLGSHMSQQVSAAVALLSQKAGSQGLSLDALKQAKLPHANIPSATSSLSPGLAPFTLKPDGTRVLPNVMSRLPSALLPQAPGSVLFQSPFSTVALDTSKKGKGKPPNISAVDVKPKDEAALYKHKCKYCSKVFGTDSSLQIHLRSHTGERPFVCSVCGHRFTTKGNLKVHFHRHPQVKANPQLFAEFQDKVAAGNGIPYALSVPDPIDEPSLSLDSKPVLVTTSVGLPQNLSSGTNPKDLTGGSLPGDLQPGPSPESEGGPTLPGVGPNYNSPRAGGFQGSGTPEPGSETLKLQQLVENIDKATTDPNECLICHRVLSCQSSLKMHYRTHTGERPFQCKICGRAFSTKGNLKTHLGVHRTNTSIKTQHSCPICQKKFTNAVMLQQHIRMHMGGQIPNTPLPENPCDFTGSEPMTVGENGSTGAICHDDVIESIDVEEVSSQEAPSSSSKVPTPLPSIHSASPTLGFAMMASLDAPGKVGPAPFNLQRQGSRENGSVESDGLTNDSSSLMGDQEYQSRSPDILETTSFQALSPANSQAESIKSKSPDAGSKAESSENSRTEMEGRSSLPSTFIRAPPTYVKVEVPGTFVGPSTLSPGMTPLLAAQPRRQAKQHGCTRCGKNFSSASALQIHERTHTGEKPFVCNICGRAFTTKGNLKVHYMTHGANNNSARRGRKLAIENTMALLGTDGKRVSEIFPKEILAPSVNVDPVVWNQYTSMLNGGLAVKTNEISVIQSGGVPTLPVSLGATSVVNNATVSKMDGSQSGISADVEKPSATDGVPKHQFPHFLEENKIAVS
Technique: universal PBM
Molecule type: double-stranded DNA, one strand shown
Matrix: in vitro
Tested at: 600 nM
Setting: 8-mer, flanks averaged, mean of replicates
Reading: higher = stronger binding
Sequence | E-score
AAAGGAAT | 0.161
CCAAGGCA | -0.175
GGTACCTA | -0.144
ACGTAGAC | -0.145
GAGTGGCC | -0.279
AATCAGGT | 0.193
GTGGAACA | 0.022
AGTCGTAG | 0.0679
GGCAAGCA | -0.0768
AAATCCAA | 0.223
CTGAACGA | -0.0566
ACAATTCC | 0.0271
GGGCGTCA | -0.23
AGATCCCC | -0.183
CCTATTCA | 0.0994
AGGGCAAA | -0.0469
ATCACAAT | 0.238
GCGTCGAC | -0.194
AGGGAGTA | 0.0176
GTCTTATA | 0.227
ACCGCACG | -0.143
CAGTGGAA | -0.151
TAAAAAGA | 0.309
AGAAGGAC | -0.0864

Sample 5
Target: RNA binding protein fox-1 homolog 2, RRM domain, GST-SBP tag (RBFOX2, Homo sapiens, UniProt O43251-10, residues 100-194)
Technique: RNA Bind-n-Seq
Molecule type: RNA
Matrix: in vitro
Tested at: 365 nM
Setting: natural RNA segment, single round, ends assumed
Baseline: no-protein control
Reading: higher = stronger binding
Shared flanks, not repeated: GGGAGUUCUACAGUCCGACGAUC … UGGAAUUCUCGGGUGCCAA
Construct (chain): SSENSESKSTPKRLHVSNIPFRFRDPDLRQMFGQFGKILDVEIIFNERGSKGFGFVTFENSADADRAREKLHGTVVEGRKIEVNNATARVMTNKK
Sequence | RBNS enrichment (R)
GCUGUCUAUUAGCCUUGCCUGCCCCACCCAUGAGGUAGGCAGAAAUCCUCACUGCCAGCCCCUCUUAAACAGGUAGAGAGCUGUGAGCCCCAGCCCCACCUGACUCCAGC | 0.187
UUUUGUGUUAAUAGAGUAUUGUUUUAGCAUGUGAUCAGAUCUUAAGAAAGAAAGAAAGAAAGACAGCAAAGCCUGAAUUCUUUUUGAGAGAUGGAGAUGAGGUACAUCAG | 3.5
UGGAUCCAGGCUGUACAUUGAAUAAAAAGAUUCGAAAUGCACAGUUAGCACAGUAUAACUUCAUUUUAGGUGUUGGUGAAAAAGAGAAAAUCAGUGGCACUGUUAAUAUC | 0.767
AGUGAUUUGGGUUUUAUUUUGUAUUUGCAGGGUUUGUCAUUAAUAAUUAAUGCCCCUCUCUUACAGAACACUCCUAUUUGUACCUCAACAAAUGCAAAUUUUCCCCGUUU | 0.375
CUCUGGAAGAAACACCAAAGCCUGCUGGAAAGGAAAGCGUUUGAAGAAAGAAUUGUCCUCCUGUAGGUUCCAUUCCUUCGGAUGGGCCUACCUUACCAUUGUUAGGACAG | 0.41
CAGUGUUUGAGCCAAAUCUCCGCAAUUGAGAGCAGUGCAAGUGCUGAGAGGAUGUAGACUGGGCUGGGGCGAGAACAUGUCACACUAGAUCCCAGUCCACGAUGAUGAGU | 0.42
CUUGACAUUGGUCUGUUUUGCUGUGAAUAUUGGAAAUGCUUAGGAUCUUCAGACCCAAUAGCUCUAAUUUUAACAUUUCUACCCAAUAAGAGGCUCUGUUUUCCACUGAA | 0.261
GCAUGAUUUUCCUUGGGAUGCAAAUCUGAAACAGUCCUUUAACAUGAACAAUCUGCAGCACACUGAAGGGCAUUCUGAAUUGAAGCUUGGAGAACUGCACUAAACCCACU | 1.29

Some of these lines once more (sample 5):
Sequence | RBNS enrichment (R)
AGUGAUUUGGGUUUUAUUUUGUAUUUGCAGGGUUUGUCAUUAAUAAUUAAUGCCCCUCUCUUACAGAACACUCCUAUUUGUACCUCAACAAAUGCAAAUUUUCCCCGUUU | 0.375
CUCUGGAAGAAACACCAAAGCCUGCUGGAAAGGAAAGCGUUUGAAGAAAGAAUUGUCCUCCUGUAGGUUCCAUUCCUUCGGAUGGGCCUACCUUACCAUUGUUAGGACAG | 0.41
CAGUGUUUGAGCCAAAUCUCCGCAAUUGAGAGCAGUGCAAGUGCUGAGAGGAUGUAGACUGGGCUGGGGCGAGAACAUGUCACACUAGAUCCCAGUCCACGAUGAUGAGU | 0.42
CUUGACAUUGGUCUGUUUUGCUGUGAAUAUUGGAAAUGCUUAGGAUCUUCAGACCCAAUAGCUCUAAUUUUAACAUUUCUACCCAAUAAGAGGCUCUGUUUUCCACUGAA | 0.261
GCAUGAUUUUCCUUGGGAUGCAAAUCUGAAACAGUCCUUUAACAUGAACAAUCUGCAGCACACUGAAGGGCAUUCUGAAUUGAAGCUUGGAGAACUGCACUAAACCCACU | 1.29
